{"data": "Results pooled from the literature", "note": "Each line is one published result; not all experiments were run side by side. Numbers after ± are the reported error."}
{"SMILES": "COc1ccccc1-c1ccncc1C(=O)Nc1nnc(OCc2ccc(Cl)cc2)s1", "target or system": "DLD-1 BRCA2-knockout", "test": "colony survival", "quantity": "IC50", "value": "~1000 nM"}
{"SMILES": "CC[C@H](C)[C@H](NC(=O)[C@H](C)NC(=O)[C@H](Cc1c[nH]cn1)NC(=O)[C@H](CC(C)C)NC(=O)CNC(=O)[C@H](Cc1ccccc1)NC(=O)CNC(=O)[C@H](Cc1ccc(O)cc1)NC(=O)CNC(=O)[C@H](CCCCN)NC(=O)[C@@H](NC(=O)[C@H](Cc1ccccc1)NC(=O)[C@@H](NC(=O)[C@H](CC(=O)O)NC(=O)[C@H](CCCNC(=N)N)NC(=O)[C@H](C)NC(=O)[C@H](CO)NC(=O)[C@H](CCCCN)NC(=O)CNC(=O)[C@H](CC(C)C)NC(=O)[C@H](CC(=O)O)NC(=O)[C@H](C)NC(=O)[C@H](Cc1ccc(O)cc1)NC(=O)[C@@H](NC(=O)[C@@H]1CCCN1C(=O)[C@@H]1CCCN1C(=O)[C@@H](NC(=O)[C@H](C)NC(=O)[C@@H](N)CCSC)C(C)C)[C@@H](C)O)C(C)C)[C@@H](C)O)C(=O)N[C@@H](Cc1ccc(O)cc1)C(=O)N1CCC[C@H]1C(=O)N[C@@H](CCCNC(=N)N)C(=O)N[C@@H](Cc1c[nH]cn1)C(=O)O", "target or system": "MEC1", "test": "cell growth or viability, flow cytometry", "setting": "90 min", "quantity": "IC50", "value": "> 16700 nM"}
{"SMILES": "Cc1cc(Oc2nc(N3CC[C@@H](c4ccncc4)C3)ncc2F)[nH]n1", "target or system": "PC-3", "test": "cell proliferation", "quantity": "IC50", "value": "95500 nM"}
{"SMILES": "CC(C)(C)C(=O)OCOP(=O)(OCOC(=O)C(C)(C)C)C1CCCN(O)C1=O (stereo not shown)", "target or system": "SR", "quantity": "log LC50", "value": "> -4 log M"}
{"SMILES": "CC(C)C12OC1C1OC13C1(C)CCC4=C(COC4=O)C1CC1OC13C2OC(=O)CCC(=O)OC1OC(CO)C(O)C(O)C1O (stereo not shown)", "target or system": "SNU-475", "test": "cell growth or viability, XTT", "setting": "47 h", "quantity": "IC50", "value": "3850 nM"}
{"SMILES": "CC(=O)N[C@H](C(=O)N[C@@H](CCCNC(=N)N)C(=O)N[C@@H](CCCCN)C(=O)N[C@@H](CCCNC(=N)N)C(=O)N[C@H](C(=O)N[C@@H](CC(C)C)C(=O)N[C@@H](CCCNC(=N)N)C(=O)N[C@]1(C)CCCCCCC=CCCC[C@@](C)(C(=O)N[C@H](C(=O)N[C@@H](CCC(=O)O)C(N)=O)C(C)C)NC(=O)[C@H](CCC(=O)O)NC(=O)[C@H](CCCNC(=N)N)NC(=O)[C@H](CCC(=O)O)NC(=O)[C@H](CCC(N)=O)NC(=O)[C@H](CC(C)C)NC(=O)[C@H](CC(C)C)NC1=O)[C@@H](C)O)C(C)C", "target or system": "A-431 (wild-type EGFR)", "test": "cell viability", "setting": "18 h", "quantity": "IC50", "value": "> 100000 nM"}
{"SMILES": "Cc1sc2c(c1C)C(c1ccc(NC(=O)c3cc([N+](=O)[O-])ccc3F)cc1)=N[C@@H](CC(=O)OC(C)(C)C)c1nnc(C)n1-2", "target or system": "Jurkat", "test": "cell growth or viability, ATP luminescence", "setting": "72 h", "quantity": "IC50", "value": "0.007 nM"}
{"SMILES": "COc1ccccc1-c1n[nH]c2nc(N[C@H]3CC[C@H](NS(=O)(=O)CC(C)C)CC3)ncc12", "test": "bead binding, competition bead pull-down, measured: LINJ.10.0330", "test system": "Leishmania donovani extract", "setting": "10 µM", "scale": "baseline: vehicle", "quantity": "relative abundance", "value": 0.9}
{"SMILES": "Cc1cc(Nc2nc(C[C@@]3(C(=O)O)CCN(Cc4cccc(Cl)c4F)[C@H](C)C3)cc(C)c2F)[nH]n1", "target or system": "EFO-27", "test": "cell growth or viability, ATP luminescence", "setting": "5 days", "quantity": "IC50", "value": "234 nM"}
{"SMILES": "CC[C@H](C)[C@@H]([C@@H](CC(=O)N1CCC[C@H]1[C@H](OC)[C@@H](C)C(=O)N[C@H](C)[C@@H](O)c1ccccc1)OC)N(C)C(=O)[C@@H](NC(=O)[C@H](C(C)C)N(C)C(=O)OCc1ccc(NC(=O)[C@H](CCCNC(N)=O)NC(=O)[C@@H](NC(=O)CCCc2cn(CC(=O)NCCCC[C@H]3NC(=O)[C@H](CCCCN)NC(=O)[C@H](CCCNC(N)=O)NC(=O)[C@H](Cc4ccc(O)cc4)NC(=O)[C@@H](NC(=O)[C@H](Cc4ccc5ccccc5c4)NC(=O)[C@H](CCCNC(=N)N)NC(=O)[C@@H](N)CCCNC(=N)N)CSSC[C@@H](C(=O)N[C@@H](CCCNC(=N)N)C(N)=O)NC(=O)[C@H](CCCNC(N)=O)NC(=O)[C@H](CCCNC(=N)N)NC(=O)[C@H](Cc4ccc(O)cc4)NC(=O)[C@@H]4CCCN4C3=O)nn2)C(C)C)cc1)C(C)C", "target or system": "Daudi", "test": "cell growth or viability, CCK-8", "quantity": "IC50", "value": "583 nM"}
{"SMILES": "O=C1C(Cl)=C(Cl)C(=O)c2ccccc21", "target or system": "MOLT-3", "test": "cell growth or viability, XTT", "quantity": "IC50", "value": "3610 nM"}
{"SMILES": "O=C1NC2(CC2)COc2ncc(F)cc2[C@H]2COCCN2c2ccn3ncc1c3n2", "test system": "Sprague-Dawley rat, female, serum", "setting": "oral, 10 mg/kg/day, end of recovery, 4-week subacute toxicity", "quantity": "serum triglycerides", "value": "0.4 ± 0.11 mmol/L"}
{"SMILES": "COc1ccccc1-c1n[nH]c2nc(NC3CCN(C(=O)Cc4ccc(F)cc4F)CC3)ncc12", "test": "bead binding, competition bead pull-down, measured: LINJ.30.0120", "test system": "Leishmania donovani extract", "setting": "10 µM", "scale": "baseline: vehicle", "quantity": "relative abundance", "value": 1.25}
{"note": "Excerpt of the above:"}
{"SMILES": "Cc1cc(Nc2nc(C[C@@]3(C(=O)O)CCN(Cc4cccc(Cl)c4F)[C@H](C)C3)cc(C)c2F)[nH]n1", "target or system": "EFO-27", "test": "cell growth or viability, ATP luminescence", "setting": "5 days", "quantity": "IC50", "value": "234 nM"}
